Earlier results, collected from citations in different studies.
Protocols differ between the studies behind these lines. “And” joins repeats or separate records; there may be more than shown. ± gives the spread as reported. Values after ≈ are worked out from the molar mass of the structure shown.
Chain of UniProt P51617 (whole entry, looked up): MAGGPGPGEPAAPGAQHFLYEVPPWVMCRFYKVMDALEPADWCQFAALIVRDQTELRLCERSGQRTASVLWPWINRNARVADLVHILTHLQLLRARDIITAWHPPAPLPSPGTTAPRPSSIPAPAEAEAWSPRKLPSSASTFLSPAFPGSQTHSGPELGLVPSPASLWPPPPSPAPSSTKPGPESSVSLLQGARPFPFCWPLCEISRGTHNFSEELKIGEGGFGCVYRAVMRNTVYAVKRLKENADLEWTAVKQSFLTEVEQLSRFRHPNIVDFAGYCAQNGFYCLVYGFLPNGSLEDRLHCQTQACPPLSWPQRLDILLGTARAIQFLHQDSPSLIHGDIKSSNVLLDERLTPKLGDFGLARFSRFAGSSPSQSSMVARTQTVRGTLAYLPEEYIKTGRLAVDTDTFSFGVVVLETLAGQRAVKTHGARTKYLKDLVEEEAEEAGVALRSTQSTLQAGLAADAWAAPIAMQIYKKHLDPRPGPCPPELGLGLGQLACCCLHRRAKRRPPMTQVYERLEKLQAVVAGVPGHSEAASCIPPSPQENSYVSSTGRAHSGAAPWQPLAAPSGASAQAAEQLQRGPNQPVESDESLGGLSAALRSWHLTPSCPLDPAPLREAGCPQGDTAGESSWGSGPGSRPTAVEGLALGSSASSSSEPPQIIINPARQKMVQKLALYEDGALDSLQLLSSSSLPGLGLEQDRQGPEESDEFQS
Chain of UniProt P06536 (whole entry, looked up): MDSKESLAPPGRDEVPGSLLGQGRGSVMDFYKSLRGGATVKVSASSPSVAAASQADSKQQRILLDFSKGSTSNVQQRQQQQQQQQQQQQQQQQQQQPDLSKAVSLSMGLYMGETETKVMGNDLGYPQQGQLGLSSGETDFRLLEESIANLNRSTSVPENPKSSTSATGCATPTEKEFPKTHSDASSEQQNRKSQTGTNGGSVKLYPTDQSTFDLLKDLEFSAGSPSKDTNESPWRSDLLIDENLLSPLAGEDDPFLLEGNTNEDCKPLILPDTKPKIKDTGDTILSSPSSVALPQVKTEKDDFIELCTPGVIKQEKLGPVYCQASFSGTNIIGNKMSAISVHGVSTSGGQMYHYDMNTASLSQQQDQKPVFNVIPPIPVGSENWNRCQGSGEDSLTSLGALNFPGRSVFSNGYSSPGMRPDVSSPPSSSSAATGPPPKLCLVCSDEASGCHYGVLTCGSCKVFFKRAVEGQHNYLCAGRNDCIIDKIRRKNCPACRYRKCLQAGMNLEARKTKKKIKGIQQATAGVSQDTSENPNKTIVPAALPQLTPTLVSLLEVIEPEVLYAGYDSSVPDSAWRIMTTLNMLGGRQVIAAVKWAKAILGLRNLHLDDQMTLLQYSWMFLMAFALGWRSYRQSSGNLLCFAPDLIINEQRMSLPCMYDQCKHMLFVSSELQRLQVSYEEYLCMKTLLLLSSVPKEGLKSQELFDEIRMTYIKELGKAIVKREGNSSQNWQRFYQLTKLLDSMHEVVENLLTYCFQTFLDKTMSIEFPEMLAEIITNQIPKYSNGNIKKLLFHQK
Chain of UniProt Q9Y6M4 (whole entry, looked up): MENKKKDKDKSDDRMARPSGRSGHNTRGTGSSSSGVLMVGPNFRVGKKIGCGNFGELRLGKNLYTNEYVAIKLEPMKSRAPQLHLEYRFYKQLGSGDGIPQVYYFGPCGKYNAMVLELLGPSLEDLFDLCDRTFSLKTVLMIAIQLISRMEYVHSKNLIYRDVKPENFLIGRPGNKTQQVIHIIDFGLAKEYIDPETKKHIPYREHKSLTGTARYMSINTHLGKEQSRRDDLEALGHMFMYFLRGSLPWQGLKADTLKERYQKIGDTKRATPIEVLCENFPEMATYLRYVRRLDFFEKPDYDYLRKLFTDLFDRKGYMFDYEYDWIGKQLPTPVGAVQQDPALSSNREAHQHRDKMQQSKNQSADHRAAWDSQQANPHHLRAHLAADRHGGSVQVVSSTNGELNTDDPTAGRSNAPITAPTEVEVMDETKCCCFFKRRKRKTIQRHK

SMILES	tested on	test	test system	conditions	scale	endpoint	value
CCCOc1ccc(S(=O)(=O)N2CCN(CCO)CC2)cc1-c1nc2c(CCC)cn(CC)c2c(=O)[nH]1			healthy male volunteers	dose not given, with concomitant alcohol		diastolic blood pressure change	-13.8 mmHg
Cc1cn([C@@H]2C[C@@H](O)[C@H](CO)O2)c(=O)[nH]c1=O			monkey	10 mg/kg		oral bioavailability	59%
CC1(C)S[C@@H]2[C@H](NC(=O)[C@H](N)c3ccccc3)C(=O)N2[C@H]1C(=O)O	Pseudomonas aeruginosa		clinical isolate RKI-No_693/15			MIC	> 16 µg/mL
Cn1c(Cn2ccc(C(F)(F)F)c(Oc3cc(Cl)cc(C#N)c3)c2=O)n[nH]c1=O			human	up to 48 weeks, trial	reference: subjects	upper abdominal pain incidence	5%
CO[C@H]1C[C@@H]2CC[C@@H](C)[C@@](O)(O2)C(=O)C(=O)N2CCCC[C@H]2C(=O)O[C@H]([C@H](C)C[C@@H]2CC[C@@H](O)[C@H](OC)C2)CC(=O)[C@H](C)/C=C(\C)[C@@H](O)[C@@H](OC)C(=O)[C@H](C)C[C@H](C)/C=C/C=C/C=C/1C			water			solubility	< 1000 µg/mL
O=C(CCCN1CC=C(n2c(=O)[nH]c3ccccc32)CC1)c1ccc(F)cc1			human			free Cmax	16 nM
Cn1c(=O)oc2ccc(-c3ccc(C[C@@H](C#N)NC(=O)[C@@H]4CNCCCO4)cc3)cc21			human	25 mg, phase II	reference: placebo	dental adverse event incidence	no effect
N#CCNC(=O)c1ccc(-c2ccnc(Nc3ccc(N4CCOCC4)cc3)n2)cc1			patients with myelofibrosis	dose not given, pooled three phase III trials		incidence of grade ≥3 anaemia adverse events	14.8%
CC#CC(=O)N[C@H]1CCCN(c2c(F)cc(C(N)=O)c3[nH]c(C)c(C)c23)C1			human	10 mg once daily		volume of distribution	221 L
CC(=O)[C@H]1CC[C@H]2[C@@H]3CC=C4C[C@@H](O)CC[C@]4(C)[C@H]3CC[C@]12C			water			solubility	< 1000 µg/mL
C=C(c1ccc(C(=O)O)cc1)c1cc2c(cc1C)C(C)(C)CCC2(C)C			FaSSIF	literature value		solubility	6.97 µg/mL (≈ 20 µM)
O=NN(CCCl)C(=O)NC1CCCCC1			water			solubility	< 1000 µg/mL
O=C(NC[C@H]1CN(c2ccc(N3CCOCC3=O)cc2)C(=O)O1)c1ccc(Cl)s1			supercritical CO2			crossover pressure	210 to 240 bar
COc1cc(O)c(C(=O)c2ccccc2)cc1S(=O)(=O)O			plasma			plasma fraction unbound	0.00942
COc1ccccc1OCC(O)CN1CCN(CC(=O)Nc2c(C)cccc2C)CC1 (stereo not drawn)			human adults	extended-release preparation		elimination half-life	7 h
Nc1nc(O)c2ncn(COC(CO)CO)c2n1			human	500 mg every 3 h, 6 doses total		oral bioavailability	8.84%
Cc1cnc(N2CC3(CCOCC3)C2)c(C(=O)Nc2ccc(C(=O)N3CCc4cc(C(=O)Nc5c(C)cccc5F)sc4-c4ccccc43)cc2)c1			rat	dose not given	reference: lung over plasma	lung to plasma ratio	~15400
C#Cc1cccc(Nc2ncnc3cc(OCCOC)c(OCCOC)cc23)c1			plasma	concentration not given, total, steady state		Cmax	6060 nM
N#Cc1ccc(C(c2ccc(C#N)cc2)n2cncn2)cc1			supercritical CO2			crossover pressure	160 to 180 bar
COCCc1ccc(OCC(O)CNC(C)C)cc1 (stereo not drawn)			human			half-life	3 to 4 h
C#C[C@]1(O)CC[C@H]2[C@@H]3CCc4cc(O)ccc4[C@H]3CC[C@@]21C			human, fed	0.035 mg, multiple doses		Cmax, geometric mean	0.101 ng/mL
Nc1cccc2c1C(=O)N(C1CCC(=O)NC1=O)C2=O (stereo not drawn)			relapsed refractory multiple myeloma patients	dose not given, grade up to 4		incidence of grade 3 thrombocytopenia	21%

SMILES	tested on	test	test system	conditions	scale	endpoint	value
CCOC(=O)C1=C(C)NC(C)=C(C(=O)OC)C1c1cccc([N+](=O)[O-])c1 (stereo not drawn)			human			free Cmax	0.302 nM
N#CCNC(=O)c1ccc(-c2ccnc(Nc3ccc(N4CCOCC4)cc3)n2)cc1			human	oral, single dose, 14C-labelled		radioactivity recovered	~97%
CC(=O)O[C@@H]1CC[C@@]2(C)[C@@H](CC[C@]3(C)[C@@H]2C(=O)C=C2[C@@H]4[C@@H](C)[C@H](C)CC[C@]4(C)CC[C@]23C)[C@@]1(C)C(=O)O			water			aqueous solubility	< 1 µg/mL
CO[C@H]1/C=C/O[C@@]2(C)Oc3c(C)c(O)c4c(O)c(c(/C=N/N5CCN(C)CC5)c(O)c4c3C2=O)NC(=O)/C(C)=C\C=C\[C@H](C)[C@H](O)[C@@H](C)[C@@H](O)[C@@H](C)[C@H](OC(C)=O)[C@@H]1C			water			solubility	< 1000 µg/mL
COc1ccc(CNc2nc(-c3ccc(C(=O)O)cc3)nc3sc4ccccc4c23)cc1Cl			mouse			oral bioavailability	~15%
CN(C)C(=N)N=C(N)N			healthy human subjects			unbound fraction	1
CC(=O)c1c(C)c2cnc(Nc3ccc(N4CCNCC4)cn3)nc2n(C2CCCC2)c1=O			beagle dog male	0.6 mg/kg		AUC(0-24 h)	521 ng·h/mL
Cc1cc(NC(=O)c2cccc(NC(=O)/C=C/CN(C)C)c2)ccc1Nc1nccc(-c2cccnc2)n1	IRAK1 (Homo sapiens, UniProt P51617)	enzyme activity, inhibitor		1 µM	reference: vehicle	remaining activity	13%
CCCCC/C=C\C/C=C\CCCCCCCCC(CCCCCCCC/C=C\C/C=C\CCCCC)OC(=O)CCCN(C)C			human patients, urine	96 h, DMBA	reference: dose	urinary recovery of metabolite	5.5%
Cc1cc(-c2ncc(CC(=O)Nc3ccc(-c4cnccn4)cn3)cc2C)ccn1			human, advanced cancer	dose not given, phase I trial	reference: subjects	incidence of anorexia	~25%
C[C@H](NCc1ccc(OCc2ccccc2F)cc1)C(N)=O			plasma			free Cmax	0.186 nM
Clc1ccccc1C(c1ccccc1)(c1ccccc1)n1ccnc1			plasma	concentration not given, total, steady state		Cmax	3360 nM
c1ccc2c(c1)ccc1ccccc12			zebrafish embryos, whole embryo	96.07 ng/well, 48 hpf, single exposure		amount in tissue	3.96 ng/well and 3.67 ng/well and 4.39 ng/well
CNC(C)C1CCC(N)C(OC2C(N)CC(N)C(OC3OCC(C)(O)C(NC)C3O)C2O)O1 (stereo not drawn)	Pseudomonas aeruginosa		clinical isolate RKI-No_216/16			MIC	≤ 0.5 µg/mL
CC1(C)O[C@@H]2[C@@H](CO[C@@]3(COS(N)(=O)=O)OC(C)(C)O[C@@H]23)O1			water			solubility	< 1000 µg/mL
CC[C@H](C)CCCCC(=O)N[C@@H](CCN)C(=O)N[C@H](C(=O)N[C@@H](CCN)C(=O)N[C@H]1CCNC(=O)[C@H]([C@@H](C)O)NC(=O)[C@H](CCN)NC(=O)[C@H](CCN)NC(=O)[C@H](CC(C)C)NC(=O)[C@@H](Cc2ccccc2)NC(=O)[C@H](CCN)NC1=O)[C@@H](C)O			rat, urine	dose not given, 48 h		unchanged urinary excretion	< 1%
Cc1nsc(-c2nnc3n2CCN(C(=O)c2ccc(F)cc2)[C@@H]3C)n1			human non-smokers	oral, highest reported mean, DDI cohort		CL/F	22.9 L/h
N=C(N)c1ncn([C@@H]2O[C@H](CO)[C@@H](O)[C@H]2O)n1			monkey	10 mg/kg		oral bioavailability	13.6%
CO/N=C(\C(=O)N[C@@H]1C(=O)N2C(C(=O)O)=C(CSc3nc(=O)c(=O)[nH]n3C)CS[C@H]12)c1csc(N)n1			human, plasma			fu	27%
Nc1ccn([C@@H]2O[C@H](CO)[C@@H](O)C2(F)F)c(=O)n1			metastatic pancreatic cancer patients	dose not given		grade 3 peripheral neuropathy	1%
C[C@]12C=CC(=O)C=C1CC[C@H]1[C@@H]3C[C@@H](O)[C@](O)(C(=O)CO)[C@@]3(C)C[C@H](O)[C@@]12F			human	concentration not given, clinical		diarrhoea incidence	0%
C=CC[C@@H]1/C=C(\C)C[C@H](C)C[C@H](OC)[C@H]2O[C@@](O)(C(=O)C(=O)N3CCCC[C@H]3C(=O)O[C@H](/C(C)=C/[C@@H]3CC[C@@H](O)[C@H](OC)C3)[C@H](C)[C@@H](O)CC1=O)[C@H](C)C[C@@H]2OC			human			fraction metabolized	> 99%

SMILES	tested on	test	test system	conditions	scale	endpoint	value
CN(C)C(=O)c1cc2cnc(Nc3ccc(N4CCNCC4)cn3)nc2n1C1CCCC1		refers to: diarrhea	advanced solid tumour or lymphoma patients	dose not given, continuous dosing	reference: patients	adverse event incidence	31.6%
Oc1c(I)cc(Cl)c2cccnc12			water			solubility	< 1000 µg/mL
C[C@H]1COCCN1c1nc(-c2cnc(N)cc2C(F)F)nc(N2CCOCC2)n1	TT					GI50	576 nM
CNCc1cc(-c2ccccc2F)n(S(=O)(=O)c2cccnc2)c1			human, plasma	10 mg multiple dose, observed clinical data		Ctrough	1.11 ng/mL
CC(C)COCC(CN(Cc1ccccc1)c1ccccc1)N1CCCC1 (stereo not drawn)			human			free Cmax	63.6 nM
O=C1[C@H](CC[C@H](O)c2ccc(F)cc2)[C@@H](c2ccc(O)cc2)N1c1ccc(F)cc1			human	oral, 20 mg, given alone, nearest sampling time		Tmax	~5 h
COCCc1ccc(OCC(O)CNC(C)C)cc1 (stereo not drawn)						aqueous solubility	> 10000 µg/mL
CCCN1C[C@H](CSC)C[C@@H]2c3cccc4[nH]cc(c34)C[C@H]21			plasma			free Cmax	0.32 nM
CC(C)(CO)c1cc2cc(NC(=O)C3(c4ccc5c(c4)OC(F)(F)O5)CC3)c(F)cc2n1C[C@@H](O)CO						logP octanol/water	3.6
Cc1cc(C)c(CNC(=O)c2cc(Cl)c3c(c2C)O[C@@](C)([C@H]2CC[C@H](N(C)C)CC2)O3)c(=O)[nH]1			human	oral, 200 mg single	reference: dose	urinary excretion unchanged	10%
CCN1CCN(Cc2ccc(Nc3ncc(F)c(-c4cc(F)c5nc(C)n(C(C)C)c5c4)n3)nc2)CC1			human	150 mg, single dose, tablet		Tmax	5.95 h
O=C(CCCCCCC(=O)Nc1ccccc1)NO			BALB/c nude mouse	oral, 50 mg/kg single dose		oral bioavailability	8.33%
Cc1cn([C@H]2C[C@H](N=[N+]=[N-])[C@@H](CO)O2)c(=O)[nH]c1=O			mouse	60 mg/kg		oral bioavailability	92%
C[Si]1(C)O[Si](C)(C)O[Si](C)(C)O[Si](C)(C)O[Si](C)(C)O1		HPLC retention correlation	1-octanol/water	25 °C		log KOW	5.2
Nc1cc(C(F)(F)F)c(-c2nc(N3CCOCC3)nc(N3CCOCC3)n2)cn1	CSNK1G3 (Homo sapiens, UniProt Q9Y6M4)	enzyme activity		10 µM	reference: untreated	remaining activity	100%
Cc1ccc(NC(=O)c2ccc(CN3CCN(C)CC3)cc2)cc1Nc1nc(-c2cccnc2)cs1			human, urine	time not given, parent plus metabolites		dose recovered in urine	~10%
Oc1cc(O)c2c(c1)O[C@H](c1cc(O)c(O)c(O)c1)[C@H](O)C2			plasma	concentration not given, total, steady state		Cmax	730 nM
CCC(=O)O[C@]1(C(=O)SCF)[C@H](C)C[C@H]2[C@@H]3C[C@H](F)C4=CC(=O)C=C[C@]4(C)[C@@]3(F)[C@@H](O)C[C@@]21C	Nr3c1 (Rattus norvegicus, UniProt P06536)		rat, spleen	intravenous, 90 nmol/kg, 1.117 (unit not given)		receptor occupancy	60.1%
CC(=O)Oc1ccccc1C(=O)Nc1ncc([N+](=O)[O-])s1			plasma	concentration not given		unbound Cmax	30 nM
COc1cc2c(Oc3ccc4[nH]c(C)cc4c3F)ccnc2cc1OCC1(N)CC1			human	16 mg single dose		half-life	97.9 ± 14.8 h
N#C[C@@]1(c2ccc3c(N)ncnn23)O[C@H](CO)[C@@H](O)[C@H]1O			dog, plasma	intravenous, 2 mg/kg, 6 h, solution		plasma concentration	346 ng/mL
CC(C)(C)c1cc(C(C)(C)C)c(NC(=O)c2c[nH]c3ccccc3c2=O)cc1O			FaSSIF	literature value		solubility	53 µg/mL (≈ 135 µM)

Repeated from above:
SMILES	tested on	test	test system	conditions	scale	endpoint	value
COCCc1ccc(OCC(O)CNC(C)C)cc1 (stereo not drawn)			human			half-life	3 to 4 h
C#C[C@]1(O)CC[C@H]2[C@@H]3CCc4cc(O)ccc4[C@H]3CC[C@@]21C			human, fed	0.035 mg, multiple doses		Cmax, geometric mean	0.101 ng/mL
Nc1cccc2c1C(=O)N(C1CCC(=O)NC1=O)C2=O (stereo not drawn)			relapsed refractory multiple myeloma patients	dose not given, grade up to 4		incidence of grade 3 thrombocytopenia	21%
CCOC(=O)C1=C(C)NC(C)=C(C(=O)OC)C1c1cccc([N+](=O)[O-])c1 (stereo not drawn)			human			free Cmax	0.302 nM
